Assay results collected from several papers.
Protocols differ between the studies behind these lines. Numbers after ± are the reported error.

Compound | system | conditions | tissue uptake [%ID/g]
CCCC[C@H](NC(=O)COCCOCCNC(=O)c1ccc(NN)nc1)C(=O)N[C@H]1CC(=O)NCCCC[C@@H](C(N)=O)NC(=O)[C@H](Cc2c[nH]c3ccccc23)NC(=O)[C@H](CCCNC(=N)N)NC(=O)[C@@H](Cc2ccccc2)NC(=O)[C@H](Cc2c[nH]cn2)NC1=O [technetium-99m labelled] | C57 mouse, female, B16/F1 melanoma, bone | intravenous, 0.037 MBq, 2 h | 0.29 ± 0.14
CSCC[C@H](NC(=O)[C@H](CC(C)C)NC(=O)[C@H](Cc1c[nH]cn1)NC(=O)CNC(=O)[C@@H](NC(=O)[C@H](C)NC(=O)[C@H](Cc1c[nH]c2ccccc12)NC(=O)[C@H](CCC(N)=O)NC(=O)CCCCCCCNC(=O)CCC(=O)Nc1ccc(CNC23CNCCNCC(N)(CNCCNC2)CNCCNC3)cc1)C(C)C)C(N)=O [copper-64 labelled] | female SCID mice, PC-3 xenograft, muscle | intravenous, 0.6 MBq, 1 h | 0.923 ± 0.274
N=C(N)NCCC[C@@H]1NC(=O)[C@H](CCCCNC(=O)CC[C@H](NC(=O)CCOCCOCCOCCOCCNC(=O)CC[C@H](NC(=O)CN2CCN(CC(=O)O)CCN(CC(=O)O)CCN(CC(=O)O)CC2)C(=O)NCCOCCOCCOCCOCCC(=O)N[C@@H](CCC(=O)NCCCC[C@@H]2NC(=O)[C@@H](Cc3ccccc3)NC(=O)[C@H](CC(=O)O)NC(=O)CNC(=O)[C@H](CCCNC(=N)N)NC2=O)C(=O)NCCCC[C@@H]2NC(=O)[C@@H](Cc3ccccc3)NC(=O)[C@H](CC(=O)O)NC(=O)CNC(=O)[C@H](CCCNC(=N)N)NC2=O)C(=O)NCCCC[C@@H]2NC(=O)[C@@H](Cc3ccccc3)NC(=O)[C@H](CC(=O)O)NC(=O)CNC(=O)[C@H](CCCNC(=N)N)NC2=O)NC(=O)[C@@H](Cc2ccccc2)NC(=O)[C@H](CC(=O)O)NC(=O)CNC1=O [indium-111 labelled] | female athymic nude mice, blood | intravenous, 3 µCi, 72 h, U-87 MG glioma xenograft | 0.02 ± 0.02
CSCC[C@H](NC(=O)[C@H](CC(C)C)NC(=O)[C@H](Cc1c[nH]cn1)NC(=O)CNC(=O)[C@@H](NC(=O)[C@H](C)NC(=O)[C@H](Cc1c[nH]c2ccccc12)NC(=O)[C@H](CCC(N)=O)NC(=O)CCCCCNC(=O)CNC(=O)CNC(=O)CNC(=O)CSC(C)=O)C(C)C)C(N)=O [technetium-99m labelled] | nude mouse, PC-3 xenograft, blood | 30 min, with: excess unlabelled conjugate | 0.98 ± 0.29
N=C(N)NCCC[C@@H]1NC(=O)[C@H](CCCCNC(=O)CCOCCOCCOCCOCCNC(=O)CC[C@H](NC(=O)CCOCCOCCOCCOCCNC(=O)CC[C@H](NC(=O)CN2CCN(CC(=O)O)CCN(CC(=O)O)CCN(CC(=O)O)CC2)C(=O)NCCOCCOCCOCCOCCC(=O)N[C@@H](CCC(=O)NCCOCCOCCOCCOCCC(=O)NCCCC[C@@H]2NC(=O)[C@@H](Cc3ccccc3)NC(=O)[C@H](CC(=O)O)NC(=O)CNC(=O)[C@H](CCCNC(=N)N)NC2=O)C(=O)NCCOCCOCCOCCOCCC(=O)NCCCC[C@@H]2NC(=O)[C@@H](Cc3ccccc3)NC(=O)[C@H](CC(=O)O)NC(=O)CNC(=O)[C@H](CCCNC(=N)N)NC2=O)C(=O)NCCOCCOCCOCCOCCC(=O)NCCCC[C@@H]2NC(=O)[C@@H](Cc3ccccc3)NC(=O)[C@H](CC(=O)O)NC(=O)CNC(=O)[C@H](CCCNC(=N)N)NC2=O)NC(=O)[C@@H](Cc2ccccc2)NC(=O)[C@H](CC(=O)O)NC(=O)CNC1=O [indium-111 labelled] | female athymic nude mice, heart | intravenous, 3 µCi, 4 h, U-87 MG glioma xenograft | 0.44 ± 0.04
N=C(N)NCCC[C@@H]1NC(=O)[C@H](CC(=O)NC23CNCCNCC(N)(CNCCNC2)CNCCNC3)NC(=O)[C@@H](Cc2ccccc2)NC(=O)[C@H](CC(=O)O)NC(=O)CNC1=O [copper-64 labelled] | Nu/Nu mouse, male, tumour-bearing, bone | intravenous, 10 µCi, 1 h | 2.28 ± 1.44
CCCC[C@H](NC(=O)CNC(=O)CNC(=O)c1ccc(NN)nc1)C(=O)N[C@H]1CC(=O)NCCCC[C@@H](C(N)=O)NC(=O)[C@H](Cc2c[nH]c3ccccc23)NC(=O)[C@H](CCCNC(=N)N)NC(=O)[C@@H](Cc2ccccc2)NC(=O)[C@H](Cc2c[nH]cn2)NC1=O [technetium-99m labelled] | C57 mouse, B16/F1 melanoma-bearing, lung | intravenous, 24 h | 0.09 ± 0.01
CCCC[C@H](NC(=O)CCCCCCCNC(=O)c1ccc(NN)nc1)C(=O)N[C@H]1CC(=O)NCCCC[C@@H](C(N)=O)NC(=O)[C@H](Cc2c[nH]c3ccccc23)NC(=O)[C@H](CCCNC(=N)N)NC(=O)[C@@H](Cc2ccccc2)NC(=O)[C@H](Cc2c[nH]cn2)NC1=O [technetium-99m labelled] | C57 mouse, B16/F1 melanoma, stomach | 2 h, with: NDP-MSH 10 µg (6.07 nmol) co-injected | 0.56 ± 0.1
N=C(N)NCCC[C@@H]1NC(=O)[C@H](CCCCNC(=O)CC[C@H](NC(=O)CCOCCOCCOCCOCCNC(=O)CN2CCN(CC(=O)O)CCN(CC(=O)O)CCN(CC(=O)O)CC2)C(=O)NCCCC[C@@H]2NC(=O)[C@@H](Cc3ccccc3)NC(=O)[C@H](CC(=O)O)NC(=O)CNC(=O)[C@H](CCCNC(=N)N)NC2=O)NC(=O)[C@@H](Cc2ccccc2)NC(=O)[C@H](CC(=O)O)NC(=O)CNC1=O [indium-111 labelled] | athymic nude mice, female, U-87 MG glioma xenograft, U-87 MG tumour | intravenous, 3 µCi, 4 h | 4.79 ± 0.61

For quick reference, copied from above:
Compound | system | conditions | tissue uptake [%ID/g]
N=C(N)NCCC[C@@H]1NC(=O)[C@H](CCCCNC(=O)CCOCCOCCOCCOCCNC(=O)CC[C@H](NC(=O)CCOCCOCCOCCOCCNC(=O)CC[C@H](NC(=O)CN2CCN(CC(=O)O)CCN(CC(=O)O)CCN(CC(=O)O)CC2)C(=O)NCCOCCOCCOCCOCCC(=O)N[C@@H](CCC(=O)NCCOCCOCCOCCOCCC(=O)NCCCC[C@@H]2NC(=O)[C@@H](Cc3ccccc3)NC(=O)[C@H](CC(=O)O)NC(=O)CNC(=O)[C@H](CCCNC(=N)N)NC2=O)C(=O)NCCOCCOCCOCCOCCC(=O)NCCCC[C@@H]2NC(=O)[C@@H](Cc3ccccc3)NC(=O)[C@H](CC(=O)O)NC(=O)CNC(=O)[C@H](CCCNC(=N)N)NC2=O)C(=O)NCCOCCOCCOCCOCCC(=O)NCCCC[C@@H]2NC(=O)[C@@H](Cc3ccccc3)NC(=O)[C@H](CC(=O)O)NC(=O)CNC(=O)[C@H](CCCNC(=N)N)NC2=O)NC(=O)[C@@H](Cc2ccccc2)NC(=O)[C@H](CC(=O)O)NC(=O)CNC1=O [indium-111 labelled] | female athymic nude mice, heart | intravenous, 3 µCi, 4 h, U-87 MG glioma xenograft | 0.44 ± 0.04
